Measurements collected from several papers.
± marks the error that the study gave.
Palmitoyl-protein thioesterase 1: Palmitoyl-protein thioesterase 1 (Homo sapiens, UniProt P50897)
UniProt P50897, sequence (whole entry, looked up): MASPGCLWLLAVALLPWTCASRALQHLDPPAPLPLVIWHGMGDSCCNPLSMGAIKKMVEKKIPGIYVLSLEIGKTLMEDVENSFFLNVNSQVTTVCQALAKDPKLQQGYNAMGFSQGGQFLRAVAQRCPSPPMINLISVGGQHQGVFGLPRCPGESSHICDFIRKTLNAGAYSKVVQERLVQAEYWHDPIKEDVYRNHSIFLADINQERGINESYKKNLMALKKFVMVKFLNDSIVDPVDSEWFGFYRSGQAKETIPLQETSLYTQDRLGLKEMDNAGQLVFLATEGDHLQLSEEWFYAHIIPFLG
DRD1: D(1A) dopamine receptor (DRD1, Homo sapiens, UniProt P21728)
UniProt P21728, sequence (whole entry, looked up): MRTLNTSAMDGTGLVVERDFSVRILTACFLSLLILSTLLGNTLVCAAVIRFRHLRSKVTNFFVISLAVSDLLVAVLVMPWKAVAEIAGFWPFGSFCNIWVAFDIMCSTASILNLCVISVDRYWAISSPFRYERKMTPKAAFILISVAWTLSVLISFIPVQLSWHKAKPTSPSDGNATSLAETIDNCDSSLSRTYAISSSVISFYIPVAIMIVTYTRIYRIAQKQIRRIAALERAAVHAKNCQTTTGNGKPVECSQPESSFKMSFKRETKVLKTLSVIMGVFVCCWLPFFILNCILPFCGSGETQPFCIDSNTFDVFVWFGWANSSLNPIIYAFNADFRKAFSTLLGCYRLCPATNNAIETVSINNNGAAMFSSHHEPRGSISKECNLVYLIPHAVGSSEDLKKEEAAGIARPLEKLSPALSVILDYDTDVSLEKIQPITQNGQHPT
Luciferin 4-monooxygenase: Luciferin 4-monooxygenase (Photinus pyralis, UniProt P08659)
UniProt O15111, sequence (whole entry, looked up): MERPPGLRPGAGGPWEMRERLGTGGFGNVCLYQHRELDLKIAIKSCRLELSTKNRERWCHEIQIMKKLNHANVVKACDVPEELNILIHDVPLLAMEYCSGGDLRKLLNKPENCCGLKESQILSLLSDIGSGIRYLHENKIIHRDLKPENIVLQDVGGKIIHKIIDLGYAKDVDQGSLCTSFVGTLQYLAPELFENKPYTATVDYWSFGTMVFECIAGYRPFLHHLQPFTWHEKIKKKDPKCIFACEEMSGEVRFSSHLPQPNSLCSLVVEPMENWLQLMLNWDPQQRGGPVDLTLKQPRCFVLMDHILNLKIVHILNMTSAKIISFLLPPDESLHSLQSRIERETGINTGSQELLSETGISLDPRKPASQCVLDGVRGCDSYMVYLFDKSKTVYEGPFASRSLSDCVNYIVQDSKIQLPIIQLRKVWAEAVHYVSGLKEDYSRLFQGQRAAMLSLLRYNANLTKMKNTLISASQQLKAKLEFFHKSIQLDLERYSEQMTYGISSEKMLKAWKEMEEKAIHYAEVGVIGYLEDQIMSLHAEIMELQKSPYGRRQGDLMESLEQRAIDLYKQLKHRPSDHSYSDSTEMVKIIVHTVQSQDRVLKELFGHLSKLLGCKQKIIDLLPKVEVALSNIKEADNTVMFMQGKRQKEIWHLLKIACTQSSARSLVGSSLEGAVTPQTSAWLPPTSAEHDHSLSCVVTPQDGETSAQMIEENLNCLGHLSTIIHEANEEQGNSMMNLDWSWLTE
UniProt P30559, sequence (whole entry, looked up): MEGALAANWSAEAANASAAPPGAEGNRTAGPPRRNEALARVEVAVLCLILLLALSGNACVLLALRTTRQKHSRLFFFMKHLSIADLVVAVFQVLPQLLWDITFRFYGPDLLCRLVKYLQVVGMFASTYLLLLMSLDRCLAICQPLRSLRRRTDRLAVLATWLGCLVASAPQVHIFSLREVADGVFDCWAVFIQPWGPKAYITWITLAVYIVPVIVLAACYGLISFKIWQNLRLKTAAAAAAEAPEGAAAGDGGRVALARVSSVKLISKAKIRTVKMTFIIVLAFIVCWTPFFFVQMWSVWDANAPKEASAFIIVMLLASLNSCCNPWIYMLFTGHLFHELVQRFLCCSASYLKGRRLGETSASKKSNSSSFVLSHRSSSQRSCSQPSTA
UniProt Q9Y2U5, sequence (whole entry, looked up): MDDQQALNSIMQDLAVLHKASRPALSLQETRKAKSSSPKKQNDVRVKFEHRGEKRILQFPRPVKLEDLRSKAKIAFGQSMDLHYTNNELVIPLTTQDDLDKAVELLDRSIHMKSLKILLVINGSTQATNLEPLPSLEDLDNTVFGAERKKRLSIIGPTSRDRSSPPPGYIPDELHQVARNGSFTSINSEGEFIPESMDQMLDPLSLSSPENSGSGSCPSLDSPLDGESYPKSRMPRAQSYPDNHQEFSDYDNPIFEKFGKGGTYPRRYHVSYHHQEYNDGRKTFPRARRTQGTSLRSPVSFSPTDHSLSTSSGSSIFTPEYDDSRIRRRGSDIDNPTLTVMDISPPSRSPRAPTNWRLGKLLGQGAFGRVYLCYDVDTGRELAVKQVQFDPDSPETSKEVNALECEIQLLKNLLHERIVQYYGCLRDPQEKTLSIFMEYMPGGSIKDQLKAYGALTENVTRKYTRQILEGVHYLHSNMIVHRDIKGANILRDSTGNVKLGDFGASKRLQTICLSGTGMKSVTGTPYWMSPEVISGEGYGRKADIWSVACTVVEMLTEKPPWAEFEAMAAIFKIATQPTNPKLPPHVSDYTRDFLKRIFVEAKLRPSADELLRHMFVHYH
UniProt O43169, sequence (whole entry, looked up): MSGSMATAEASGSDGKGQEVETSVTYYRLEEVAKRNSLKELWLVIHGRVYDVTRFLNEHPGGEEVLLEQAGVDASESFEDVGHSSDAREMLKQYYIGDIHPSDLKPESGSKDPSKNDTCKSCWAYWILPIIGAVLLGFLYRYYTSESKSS
UniProt P28566, sequence (whole entry, looked up): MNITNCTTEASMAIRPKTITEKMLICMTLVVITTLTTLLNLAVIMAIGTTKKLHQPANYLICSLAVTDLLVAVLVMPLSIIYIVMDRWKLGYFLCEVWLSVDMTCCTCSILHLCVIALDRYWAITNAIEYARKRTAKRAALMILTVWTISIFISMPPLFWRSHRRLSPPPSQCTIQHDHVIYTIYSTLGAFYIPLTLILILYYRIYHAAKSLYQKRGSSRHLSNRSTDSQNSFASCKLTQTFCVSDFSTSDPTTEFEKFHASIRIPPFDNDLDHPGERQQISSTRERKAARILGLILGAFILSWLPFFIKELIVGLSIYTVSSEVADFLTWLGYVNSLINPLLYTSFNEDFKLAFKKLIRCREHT
UniProt O95747, sequence (whole entry, looked up): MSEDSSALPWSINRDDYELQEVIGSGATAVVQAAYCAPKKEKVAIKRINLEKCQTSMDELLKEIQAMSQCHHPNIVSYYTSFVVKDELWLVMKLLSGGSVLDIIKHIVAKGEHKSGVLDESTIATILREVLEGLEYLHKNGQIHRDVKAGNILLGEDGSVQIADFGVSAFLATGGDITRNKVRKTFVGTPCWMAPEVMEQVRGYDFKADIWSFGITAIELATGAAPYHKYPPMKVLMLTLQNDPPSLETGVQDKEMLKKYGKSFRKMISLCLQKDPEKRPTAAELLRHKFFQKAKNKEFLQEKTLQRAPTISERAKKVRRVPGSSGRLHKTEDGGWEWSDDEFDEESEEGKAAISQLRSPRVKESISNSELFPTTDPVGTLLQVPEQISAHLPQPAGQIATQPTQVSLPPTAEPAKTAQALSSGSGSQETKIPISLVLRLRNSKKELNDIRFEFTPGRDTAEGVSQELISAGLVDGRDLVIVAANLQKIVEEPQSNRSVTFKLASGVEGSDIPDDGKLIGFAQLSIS
UniProt Q9C0K7, sequence (whole entry, looked up): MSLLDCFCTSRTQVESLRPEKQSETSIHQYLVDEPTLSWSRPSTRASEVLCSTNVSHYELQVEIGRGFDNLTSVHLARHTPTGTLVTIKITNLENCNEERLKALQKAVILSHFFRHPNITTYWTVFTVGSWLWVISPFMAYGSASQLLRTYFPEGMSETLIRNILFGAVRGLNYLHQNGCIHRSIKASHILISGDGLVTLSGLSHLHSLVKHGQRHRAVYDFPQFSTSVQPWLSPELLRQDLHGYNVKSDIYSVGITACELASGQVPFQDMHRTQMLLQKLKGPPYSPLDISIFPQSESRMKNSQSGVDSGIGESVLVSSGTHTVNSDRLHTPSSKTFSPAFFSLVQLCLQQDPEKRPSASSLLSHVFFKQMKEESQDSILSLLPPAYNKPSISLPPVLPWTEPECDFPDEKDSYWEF
UniProt P08253, sequence (whole entry, looked up): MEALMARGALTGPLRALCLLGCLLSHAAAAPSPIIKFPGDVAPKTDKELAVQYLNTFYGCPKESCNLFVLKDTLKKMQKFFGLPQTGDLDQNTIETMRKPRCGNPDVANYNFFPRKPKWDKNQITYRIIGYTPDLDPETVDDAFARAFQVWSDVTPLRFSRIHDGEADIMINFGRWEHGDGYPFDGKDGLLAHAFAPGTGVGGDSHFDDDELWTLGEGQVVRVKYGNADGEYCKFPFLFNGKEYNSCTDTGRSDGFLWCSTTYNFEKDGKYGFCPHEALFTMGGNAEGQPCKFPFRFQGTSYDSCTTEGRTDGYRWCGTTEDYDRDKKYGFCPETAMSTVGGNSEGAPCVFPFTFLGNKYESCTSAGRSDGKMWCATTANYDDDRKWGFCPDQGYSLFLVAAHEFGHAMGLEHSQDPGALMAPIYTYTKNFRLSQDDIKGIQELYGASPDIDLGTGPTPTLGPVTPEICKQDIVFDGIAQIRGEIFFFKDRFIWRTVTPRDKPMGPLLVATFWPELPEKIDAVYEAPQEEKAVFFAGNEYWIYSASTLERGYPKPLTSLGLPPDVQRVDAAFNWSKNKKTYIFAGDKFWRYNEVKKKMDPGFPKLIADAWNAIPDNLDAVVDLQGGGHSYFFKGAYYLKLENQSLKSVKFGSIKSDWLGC

SMILES | target or system | test | test system | conditions | how to read | endpoint | result
COc1ccc(S(=O)(=O)N(CC(=O)NO)CC(C)C)cc1 | 72 kDa type IV collagenase (MMP2, Homo sapiens, UniProt P08253) | fluorometric | – | 10 ng/mL | – | inhibition | 89%
O=C1c2ccccc2CCN1CCCCN1CCN(c2cccc(Cl)c2Cl)CC1 | 5-hydroxytryptamine receptor 1E (HTR1E, Homo sapiens, UniProt P28566) | radioligand binding | – | concentration not given, together with: [3H]5-HT | – | inhibition | 64.5%
COc1cc(C)c(/C=C/C(C)=C/C=C/C(C)=C/C(=O)O)c(C)c1C | Palmitoyl-protein thioesterase 1 | Spectrum Collection screen | – | concentration not given, together with: substrate 20 µM | – | inhibition | 65.4%
Cc1ccc(N(O)N=Nc2ccc(S(=O)(=O)Nc3cc(C)on3)cc2)cc1 | α-glucosidase, rat intestine | enzyme activity | – | 180 µg/mL, together with: 4-nitrophenyl α-D-glucopyranoside | – | inhibition | 42.5 ± 0.29%
O=C(O)c1cc(O)c2c(c1)C(=O)c1cccc(O)c1C2=O | HK-2 co-cultured with HepaRG | MTT | – | 266.67 µM, 48 h | reference: untreated control | viability | 20 ± 11.5%
Cc1noc(NS(=O)(=O)c2ccc(N=NN(O)c3ccccc3)cc2)c1C | α-glucosidase, rat intestine | enzyme activity | – | 240 µg/mL, together with: 4-nitrophenyl α-D-glucopyranoside | – | inhibition | 55 ± 0.09%
Cc1cc(O)c2c(c1)C(=O)c1cc(O)cc(O)c1C2=O | HK-2 co-cultured with HepaRG | MTT | – | 266.67 µM, 48 h | reference: untreated control | viability | 44 ± 3.33%
CC[C@@H]1[C@H](F)C(=O)N[C@@H]1COc1nccc2cc(C(N)=O)c(OC)cc12 | Serine/threonine-protein kinase OSR1 (OXSR1, Homo sapiens, UniProt O95747) | ATP-site probe binding, ActivX profiling, item: OSR1 | THP-1 cell lysate | 0.01 mM, Lys2 site | – | inhibition | -18.1%
Cc1c(C)c2c(c(C)c1O)CCC(C)(C(=O)O)O2 (centres unmarked) | Palmitoyl-protein thioesterase 1 | Spectrum Collection screen | – | concentration not given, together with: substrate 20 µM | – | inhibition | 62%
OC[C@H]1O[C@@H](Oc2ccccc2)[C@H](O)[C@@H](O)[C@H]1O | Adhesin FmlH, lectin domain (Escherichia coli, UniProt Q1RBS0) | binding to desialylated mucin, ELISA competition | UPEC UTI89 | 10 µM, together with: desialylated bovine submaxillary mucin | – | inhibition | 15.5 ± 4.2%
O=C(CN1CCO[C@@H](COc2ccccn2)C1)N1CCc2ccccc21 | DRD1 | radioligand binding | – | concentration not given, together with: [3H]SCH23390 | – | inhibition | 47.9%
O=C(O)C1=CC(=C(c2ccc(O)c(C(=O)O)c2)c2ccc(O)c(C(=O)O)c2)C=CC1=O | Luciferin 4-monooxygenase | luciferase luminescence, inhibitor | cell-free | 50 µM, counter-screen | – | inhibition | 64.4%
COc1ccc(F)cc1C(=O)NCc1ccc(-c2nn([C@@H](C)C(F)(F)F)c(N)c2C(N)=O)cc1 | STE20-related kinase adapter protein beta (Homo sapiens, UniProt Q9C0K7) | target engagement, competitive chemoproteomics | human PBMCs | 0.1 µM | – | inhibition | 8.1%
O=c1cc(N2CCCCC2)cnn1CC1COc2ccccc2O1 (centres unmarked) | Luciferin 4-monooxygenase | luciferase luminescence, inhibitor | cell-free | 50 µM, counter-screen | – | inhibition | 96.8%
Cc1cc(NS(=O)(=O)c2ccc(N=NN(C)O)cc2)no1 | α-glucosidase, rat intestine | enzyme activity | – | 300 µg/mL, together with: 4-nitrophenyl α-D-glucopyranoside | – | inhibition | 70 ± 1.38%
CC/C(=N\NC(=O)NCc1cccc(O)c1)c1ccc(O)c(C)c1O | Mitogen-activated protein kinase kinase kinase 2 (MAP3K2, Homo sapiens, UniProt Q9Y2U5) | kinase activity | – | 0.1 µM | – | inhibition | -2.8%
CN(C(=O)n1cnc(-c2ccc[n+]([O-])c2)c1)C1CCCCC1 | Oxytocin receptor (OXTR, Homo sapiens, UniProt P30559) | – | – | 10 µM | – | inhibition | 1.5%
CCN(O)N=Nc1ccc(S(=O)(=O)Nc2nccs2)cc1 | α-glucosidase, rat intestine | enzyme activity | – | 240 µg/mL, together with: 4-nitrophenyl α-D-glucopyranoside | – | inhibition | 55 ± 1.38%
COc1ccc2c(c1)C(=O)N(CCCN1CCN(c3ccccc3OC)CC1)C2 | DRD1 | radioligand binding | – | concentration not given, together with: [3H]SCH23390 | – | inhibition | 49.5%
Cn1cc(-c2cnc3ccc(NC(=O)Nc4ccc(F)c(Br)c4)cc3n2)cn1 | Inhibitor of nuclear factor kappa-B kinase subunit alpha (CHUK, Homo sapiens, UniProt O15111) | kinase binding, KiNativ profiling, item: Lys2 peptide | PANC-1 lysate | 1.25 µM | – | inhibition | 1.3%
Cn1cc(-c2ccc(-c3cncc(Cl)c3N3CCC4(CCNC4=O)CC3)cc2)cn1 | COLO 205 | gene expression, microarray, item: PRDM1 mRNA | – | concentration not given, 2 h | reference: untreated cells | log2 fold change | 3.57
NNc1ccc2ccccc2c1 | Cytochrome b5 type B (CYB5B, Homo sapiens, UniProt O43169) | MS-based ABPP-SILAC | HEK-293T lysate | 1 µM | – | inhibition | inhibited
CC(C)C[C@H](NC(=O)C[C@H](O)[C@H](CC(C)C)NC(=O)[C@H](Cc1c[nH]cn1)NC(=O)CNC(=O)[C@@H](NC(=O)[C@H](C)NC(=O)[C@H](Cc1c[nH]c2ccccc12)NC(=O)[C@H](CCC(N)=O)NC(=O)[C@@H](Cc1ccccc1)NC(=O)COCCOCCNC(=O)CCC(C(=O)O)N1CCN(CC(=O)O)CCN(CC(=O)O)CCN(CC(=O)O)CC1)C(C)C)C(N)=O (some centres unmarked) [lutetium-177 labelled] | – | – | female BALB/c nu/nu mice, bladder | intravenous, 100 pmol, 2 h, together with: PA 300 µg | – | tissue uptake | 56 ± 29 %ID/g

For quick reference, copied from above:
SMILES | target or system | test | test system | conditions | how to read | endpoint | result
CC/C(=N\NC(=O)NCc1cccc(O)c1)c1ccc(O)c(C)c1O | Mitogen-activated protein kinase kinase kinase 2 (MAP3K2, Homo sapiens, UniProt Q9Y2U5) | kinase activity | – | 0.1 µM | – | inhibition | -2.8%
CN(C(=O)n1cnc(-c2ccc[n+]([O-])c2)c1)C1CCCCC1 | Oxytocin receptor (OXTR, Homo sapiens, UniProt P30559) | – | – | 10 µM | – | inhibition | 1.5%
CCN(O)N=Nc1ccc(S(=O)(=O)Nc2nccs2)cc1 | α-glucosidase, rat intestine | enzyme activity | – | 240 µg/mL, together with: 4-nitrophenyl α-D-glucopyranoside | – | inhibition | 55 ± 1.38%
